Measured values of several laboratories.
Each numbered part is a random draw from the data of one study; scales do not carry over between parts.

Set 1
Target: Sal-like protein 4, full length isoform A (SALL4, Homo sapiens, UniProt Q9UJQ4, residues 1-1053)
Sequence of UniProt Q9UJQ4 (whole entry, looked up): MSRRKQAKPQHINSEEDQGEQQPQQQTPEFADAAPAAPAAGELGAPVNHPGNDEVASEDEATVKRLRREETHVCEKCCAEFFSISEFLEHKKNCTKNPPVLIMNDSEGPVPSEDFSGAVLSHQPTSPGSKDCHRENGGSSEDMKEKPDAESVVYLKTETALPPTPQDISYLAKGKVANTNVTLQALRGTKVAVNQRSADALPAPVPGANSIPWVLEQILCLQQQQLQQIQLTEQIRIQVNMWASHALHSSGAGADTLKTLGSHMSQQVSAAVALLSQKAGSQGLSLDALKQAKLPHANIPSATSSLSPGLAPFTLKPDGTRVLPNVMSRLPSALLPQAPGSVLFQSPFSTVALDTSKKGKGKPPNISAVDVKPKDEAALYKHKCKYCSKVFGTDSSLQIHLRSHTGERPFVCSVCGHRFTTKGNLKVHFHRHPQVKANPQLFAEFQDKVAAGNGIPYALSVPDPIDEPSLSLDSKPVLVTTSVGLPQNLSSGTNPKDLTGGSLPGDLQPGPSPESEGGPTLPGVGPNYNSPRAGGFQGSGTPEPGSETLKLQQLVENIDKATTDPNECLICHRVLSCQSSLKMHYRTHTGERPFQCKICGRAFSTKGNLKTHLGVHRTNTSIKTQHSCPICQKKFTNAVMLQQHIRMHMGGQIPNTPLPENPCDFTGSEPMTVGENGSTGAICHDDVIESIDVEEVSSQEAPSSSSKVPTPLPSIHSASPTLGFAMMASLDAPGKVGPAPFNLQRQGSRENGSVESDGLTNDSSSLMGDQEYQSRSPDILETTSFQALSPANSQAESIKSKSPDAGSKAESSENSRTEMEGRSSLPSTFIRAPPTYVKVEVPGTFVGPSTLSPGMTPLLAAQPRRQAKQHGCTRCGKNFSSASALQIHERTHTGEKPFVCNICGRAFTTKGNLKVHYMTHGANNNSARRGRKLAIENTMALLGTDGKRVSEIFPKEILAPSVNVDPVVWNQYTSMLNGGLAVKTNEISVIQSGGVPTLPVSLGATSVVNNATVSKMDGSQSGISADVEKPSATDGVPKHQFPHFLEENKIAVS
Method: universal PBM
Form: double-stranded DNA, one strand shown
Matrix: in vitro
Tested at: 600 nM
Setting: 8-mer, flanks averaged, mean of replicates
Direction: higher = stronger binding
| Sequence | E-score |
| --- | --- |
| CAAAAGTA | 0.252 |
| GTCATACA | 0.224 |
| GTTTGCGA | 0.0908 |
| AATTGGAA | 0.142 |
| AATAATGC | 0.336 |
| CCGCCCTA | -0.124 |
| CTGCGCTC | -0.319 |
| GGGAAACC | -0.168 |

Set 2
Target: RING finger protein unkempt homolog, zinc fingers 1-6, GST-SBP tag (UNK, Homo sapiens, UniProt Q9C0B0, residues 30-357)
Method: RNA Bind-n-Seq
Form: RNA
Matrix: in vitro
Tested at: not given
Setting: RNA with constant flanks, ends assumed
Reference: input RNA pool
Direction: higher = stronger binding
Shared flanks, not repeated: GGGAGUUCUACAGUCCGACGAUC … CAACAGAGGAUUGAGCAUCA
Target sequence (chain): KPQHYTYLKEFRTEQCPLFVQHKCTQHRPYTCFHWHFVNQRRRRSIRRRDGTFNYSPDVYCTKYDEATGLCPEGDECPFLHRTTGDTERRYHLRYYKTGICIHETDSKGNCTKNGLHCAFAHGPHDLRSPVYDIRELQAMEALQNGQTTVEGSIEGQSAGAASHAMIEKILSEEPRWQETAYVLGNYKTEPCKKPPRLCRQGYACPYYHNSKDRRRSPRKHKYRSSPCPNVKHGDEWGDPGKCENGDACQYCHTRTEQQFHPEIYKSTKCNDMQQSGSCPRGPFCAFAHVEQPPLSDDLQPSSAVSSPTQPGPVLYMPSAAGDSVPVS
| Sequence | bound/input enrichment [ratio] |
| --- | --- |
| CCAUAAGUACAGUUGAUCAAAGUCAUAGUAGGUAAAUGCUUUAUGGGACAGCUGACACCUUUCCGACCCUACCAGGUAUUGCUAGCAUGUGAGCUGCAGUUGUGGGGUCUGAGAUAUUUC | 0.196 |
| GACCUAAUCCAGGAUGUUGAAUGGGAUUAUUGCCAUCUUACACCAUAUUUUUGUAAAAUGCCGCUUAAUCAUAAUCUCACAAUGAAGAUUUUGCAUCACUUUUGCUAUUAUCAUUCUUUU | 0.119 |
| AAAGUCUCCAAUUUGGUUUUCAACCUUAUCUACAAGGUUGAAGAAUUCACUGUGUUUUUCCCGGUUUCAGAGCCACUUGAUGUCUGCUACAAUGAGCUUGUGCAGUAGGUGCUAUAGAUC | 0.374 |
| CUGACCAGAGUCUCUGAAGACCCCAUCCAACGCUCCAAUGGCCAGCAACAACACCGCCAGCACCGCACAAGCCAGGAAGCUGGUAGAACAGCUGAAGAUGGAAGCCAACAUCGACAGGAU | 0.0769 |
| GACGUAUUUUCUGUGUAAUUCUCUUGUUCUUAUACUACCUGCAUUAUCUUUAUGUCACUGCCGCAAAUGCCUAUCAUAAGUCAACUCUCAGGAGCCAUAAUGGGACAAGCUAAUAACUAG | 0.174 |

Set 3
Target: Replicase polyprotein 1ab, main protease (rep, Severe acute respiratory syndrome coronavirus 2, UniProt P0DTD1)
Observed: enzyme activity
Action: inhibitor
Tested at: 20 µM
Setting: primary screen
| SMILES | inhibition |
| --- | --- |
| CC1=C(C(=O)O)N2C(=O)[C@@H](NC(=O)[C@H](N)C3=CCC=CC3)C2SC1 (stereo partly shown) | 25.4% |
| C/N=c1/nc(-c2ccccc2)n(-c2ccccc2)s1 | 99.8% |
| CCc1ccc(/C=C/C(=O)Nc2ccc(C(C)=O)cc2)o1 | 57.1% |

Set 4
Target: Replicase polyprotein 1ab, nsp13 helicase (rep, Severe acute respiratory syndrome coronavirus 2, UniProt P0DTD1)
Action: inhibitor
Tested at: 20 µM
| SMILES | inhibition |
| --- | --- |
| Cc1ccc(C(=O)c2cc(O)c(O)c([N+](=O)[O-])c2)cc1 | 77% |
| COC(=O)N[C@@H](C)CNc1nccc(-c2cn(C(C)C)nc2-c2cc(Cl)cc(NS(C)(=O)=O)c2F)n1 | 4.96% |
| Cc1ccc(S(=O)(=O)NC(=O)NN2CCCCCC2)cc1 | -1.98% |
| O=C(CCCN1CC=C(n2c(=O)[nH]c3ccccc32)CC1)c1ccc(F)cc1 | -30.7% |
| CO[C@H]1C[C@@H]2CC[C@@H](C)[C@@](O)(O2)C(=O)C(=O)N2CCCC[C@H]2C(=O)O[C@H]([C@H](C)C[C@@H]2CC[C@@H](O)[C@H](OC)C2)CC(=O)[C@H](C)/C=C(\C)[C@@H](O)[C@@H](OC)C(=O)[C@H](C)C[C@H](C)/C=C/C=C/C=C/1C | 8.5% |
| CCCCCCCCCCCCCCCCCC(=O)OCC(O)CO (stereo not shown) | 0.97% |
| CC(O)(P(=O)(O)O)P(=O)(O)O | 7.61% |
| Cn1c(=O)c2c(ncn2CCO)n(C)c1=O | -0.65% |
| C[C@H](c1ccc(F)cc1CCCC(=O)O)N(c1cc(F)ccc1F)S(=O)(=O)c1ccc(Cl)cc1 | 4.28% |
| Cc1onc(-c2c(Cl)cccc2Cl)c1C(=O)N[C@@H]1C(=O)N2[C@@H]1SC(C)(C)[C@@H]2C(=O)O | 5.91% |
| CC(=O)O[C@]1(C(C)=O)CC[C@H]2[C@@H]3C=C(C)C4=CC(=O)CC[C@@H]4[C@H]3CC[C@@]21C | 6.83% |
| Fc1ccc(C(OCCN2CCN(CCCc3ccccc3)CC2)c2ccc(F)cc2)cc1 | 1.83% |
| CCOC(=O)Nc1ccc2c(c1)N(C(=O)CCN1CCOCC1)c1ccccc1S2 | 3.43% |
| CCCCCCCCc1ccc(-c2ccc(C(=O)O)cc2)cc1 | 5.89% |
| COc1ccc(Cl)cc1C(=O)NCCc1ccc(C(=O)O)cc1 | 2.76% |
| O=C1NC(=O)[C@@]2(CCOc3ccc(F)cc32)N1 | 2.6% |
| CC(C)CNc1ccnc(NCc2csc(-c3ccccc3)n2)n1 | -0.61% |
| COc1ccc(C(=O)CC2(O)C(=O)Nc3c(Cl)ccc(Cl)c32)cc1 (stereo not shown) | 3.62% |
| Cc1c(C(=O)N2CCOc3ccc(-c4ccc(N)nc4)cc3C2)ccc(S(C)(=O)=O)c1F | 4.42% |
| CC[C@]12CCCN3CCc4c(n(c5ccccc45)C(=O)C1)[C@@H]32 | -2.09% |
| CC(C)c1ccc(C(=O)N=C(N)N)cc1S(C)(=O)=O | 6.15% |
| Oc1ccc2c3c1O[C@H]1c4c(c5ccccc5n4Cc4ccccc4)C[C@@]4(O)[C@@H](C2)N(CC2CC2)CC[C@]314 | -3.52% |
| COc1cc(-n2c(=S)[nH]c3ccccc3c2=O)c(Cl)cc1Cl | 7.08% |
| Nc1nc(=O)n([C@H]2C[C@H](O)[C@@H](CO)O2)cc1F | 1.72% |
| Cc1cccc(N2CC(CO)OC2=O)c1 (stereo not shown) | 7.09% |

Set 5
Target: Ras GTPase-activating protein-binding protein 1, full length (G3BP1, Homo sapiens, UniProt Q13283)
Sequence of UniProt Q13283 (whole entry, looked up): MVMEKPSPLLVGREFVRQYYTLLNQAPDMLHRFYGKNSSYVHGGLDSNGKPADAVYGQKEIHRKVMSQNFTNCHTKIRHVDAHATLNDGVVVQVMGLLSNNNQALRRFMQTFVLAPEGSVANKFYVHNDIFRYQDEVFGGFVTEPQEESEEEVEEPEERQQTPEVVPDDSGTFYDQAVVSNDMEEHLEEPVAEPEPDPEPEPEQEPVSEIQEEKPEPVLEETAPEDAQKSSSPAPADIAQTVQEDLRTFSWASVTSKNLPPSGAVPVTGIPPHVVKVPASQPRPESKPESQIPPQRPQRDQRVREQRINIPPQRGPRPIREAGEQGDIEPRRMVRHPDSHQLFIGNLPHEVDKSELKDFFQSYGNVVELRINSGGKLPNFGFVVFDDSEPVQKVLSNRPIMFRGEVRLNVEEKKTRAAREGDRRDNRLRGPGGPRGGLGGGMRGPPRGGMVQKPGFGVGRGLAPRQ
Method: RNA Bind-n-Seq
Form: RNA
Matrix: in vitro
Tested at: 200 nM
Setting: whole 134-nt RNA, ends assumed
Together with: 150 mM LiCl
Reference: input library
Direction: higher = stronger binding
All molecules: 7-deaza-guanosine replaces G
Shared flanks, not repeated: GGGAGUUCUACAGUCCGACGAUC … UGGAAUUCUCGGGUGUCAAGG
| Sequence | log2 enrichment |
| --- | --- |
| CACAGACAACACGCACCCACACAGACACAGAGGGAAGGGGUUGGGAUGGGGACAGGGUGCACAGCAGGGCGGGGCAGGACCCCAGCCCCU | 1.28 |
| AAGUCCUGUGCUACACAUCGUAUGUACCGAAUCGGCCCCCGGCCCCCGGCCCCCGGGAAAGUAUUAUGUUACGCCGUUCGGAUCUGCACU | -0.0488 |
| UAACUUUAGAGGAGGAUCUGAUGGAUAUGGCAGUGGACGUGGAUUUGGGGAUGGCUAUAAUGGGUAUGGAGGAGAACCUGGAGGUGGCAA | 0.00232 |
| CAAGUCCUGUGCUACACAUCGUAUGUACCGAAUCGGGUGGGUGGGUUUUUUUGGGAAAGUAUUAUGUUACGCCGUUCGGAUCUGCACUUC | -0.2 |
| CACAGACAACACGCACCCACACAGACACACAGGGAAGGGGUUGGGAUGGGGACAGGGUGCACAGCAGGGCGGGGUAGGACCCCAGCCCCU | -0.212 |
| UCAAGUCCUGUGCUACACAUCGUAUGUACCGAAUCGGGGAAAGGGAAAGGAAAGGAAAGUAUUAUGUUACGCCGUUCGGAUCUGCACUUC | -0.651 |
| AGUCCUGUGCUACACAUCGUAUGUACCGAAUCGGGAGGGAAAAAAAGGGUUUUUGGGAAAGUAUUAUGUUACGCCGUUCGGAUCUGCACU | -1.44 |
| AAGUCCUGUGCUACACAUCGUAUGUACCGAAUCGGGGCCCGGGGCCCGGCCCGGGGAAAGUAUUAUGUUACGCCGUUCGGAUCUGCACUU | -0.571 |

Set 6
Cell line: HEK-293T/ACE2
Tested at: 10 µM
Time: 16 h
Reference: vehicle
| SMILES | viability [%] |
| --- | --- |
| CC(=O)N1CCN(c2ccc(OCC3COC(Cn4ccnc4)(c4ccc(Cl)cc4Cl)O3)cc2)CC1 (stereo not shown) | 103 |
| CCC(C)(C)C(=O)O[C@H]1C[C@@H](C)C=C2C=C[C@H](C)[C@H](CC[C@@H]3C[C@@H](O)CC(=O)O3)[C@H]21 | 106 |
| Cc1ccnc(NS(=O)(=O)c2ccc(N)cc2)n1 | 102 |

A few entries again (set 4):
| SMILES | inhibition |
| --- | --- |
| CC(C)CNc1ccnc(NCc2csc(-c3ccccc3)n2)n1 | -0.61% |
| CCCCCCCCc1ccc(-c2ccc(C(=O)O)cc2)cc1 | 5.89% |
| COC(=O)N[C@@H](C)CNc1nccc(-c2cn(C(C)C)nc2-c2cc(Cl)cc(NS(C)(=O)=O)c2F)n1 | 4.96% |
| Cc1c(C(=O)N2CCOc3ccc(-c4ccc(N)nc4)cc3C2)ccc(S(C)(=O)=O)c1F | 4.42% |
| C[C@H](c1ccc(F)cc1CCCC(=O)O)N(c1cc(F)ccc1F)S(=O)(=O)c1ccc(Cl)cc1 | 4.28% |
